Published values collected from several papers.
Parts stem from different laboratories: compare values within a part only. Positions count from the first letter of the parent shown.

Set 1
Target: RNA binding protein fox-1 homolog 2, RRM domain, GST-SBP tag (RBFOX2, Homo sapiens, UniProt O43251-10, residues 100-194)
Method: RNA Bind-n-Seq
Molecule type: RNA
Medium: in vitro
Tested at: 365 nM
Setting: natural RNA segment, single round, ends assumed
Baseline: no-protein control
Direction: higher = stronger binding
Constant ends, left off below: GGGAGUUCUACAGUCCGACGAUC … UGGAAUUCUCGGGUGCCAA
Residues (chain): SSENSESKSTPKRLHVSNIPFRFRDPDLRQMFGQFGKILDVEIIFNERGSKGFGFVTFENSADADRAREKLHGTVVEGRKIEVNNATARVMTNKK
| Sequence | RBNS enrichment (R) |
| --- | --- |
| GGAGAAGGAGCGGGCCCUCCCGCGCCCUGUGCUGGCCGGAGCAGCGUUUUCUUAUGGUGGAGCAGCUGAGGAGGGCAGGAACCGCCUCUCAGCACCGACCUCCCCUGAUC | 0.259 |
| AGAAAUGCCAGAAAUAAAUUAAUUGCAUCUUAGUCUAAAUUUAAGUCCUUUGCCAUGAGGAAAAAGUGGUUUUUUGCUUCAUAUGGUAAAUCUAUAUUAUUCAUAUUGAA | 1.53 |
| CAUGGUAGUGUUUCUUAUUUAUUUGGUUGCUGCUAAGCCUUGACAGUGGUUCACCUUCCUGGGCUGUCCCCAGUGGUCACGUCCUGCCUGGCUUCCUACUUGGGUAUAGC | 0.259 |
| CUGUAAGGUUUCAAAAGCACUGGUAGGCAUAGCAUAGAUGUUCCAGUUACACACUCAGUAAACACUGGUUAUCAGUCAUUGGAAAGGUUACCUGUGCAACCACCAGAUUC | 0.261 |
| AACACAUCCCUUCAGUGACUCAGAGUCUCAGAAGGAAACCCUGACUCCUGGGGCCAUUUCCUAAUGGUACUGUAAGCCAAGCAGCUUUGCUUCUGCCUCUGUUUCCAAGC | 0.219 |
| GGUGGCCGCAUGCCGGCGCGUGUCUGUUUCUGUGCGGCGGCUCAGGGUGGCGCGGCUGCUGCUCACUGUGCUGCUGGGACCCAAGAGUGGGGCGUCGCCCCUGCUGGCCG | 0.952 |
| CACUGCCUUCAUGCUGCCCCCGCCGGACUGGCAGAGCCAGGGGUCAGCCACCUGCCUUUGAGUCAUCAAGAUGCCUCUGCAGCCACAAUUCUGACCUAAGUGGCAGGGCC | 0.305 |
| CCAGUUGAACUUUCUAAGUCUGUGAUCCCCGUGCUGACUGUGGAAGUGUAUUUAUACCAAGAUGGAGAUCUUGACUUCUUGAAUAUAUCUGGACUGGUAAAAUCUUGAUG | 0.504 |
| AAACUUUUAAUUAAGUUUUGUUUAUAAUAAAAAUAUAAAUGGAUUUGAAAGUUUCCAUUUUUUAAAGUUACCCUCGUUUUCAAAGGUAUUUUCUAAACAGAUCUUUAAUG | 0.654 |
| UUAGAUGAUGUGACCUCUAAUAUUUAUCUAAUAAAUAUGUAUUCAGAUGAAACCUGUAUAUUAGGUGUUCAUGUGGUUAUUUUGUAUUUAAAGAUCAAAUUAUUUGAUUA | 0.42 |
| AUGUAGGUGAGCGCCCGCAUUGCAAAGCUGACUCAGGUCCACUGGGCUGAAGGUCCCUUGGAGCCCAGUGUCUAGUCACACCUUUUUGCUCUGGGCCCAUGAGGCCUACU | 0.199 |
| UAUUGACGUUAUAACUGGGCUUCAAAGAGAUGUCUGUCUAUAUUGGGGCCUCUCAUUUUUUAUAAGCUCUUGAUAUACUUGAACAAUUUAAUAUGUACAGUUAGUUUGCU | 0.437 |

Set 2
Target: CREB3L1, bZIP domain (human)
Method: DHFR protein complementation
Medium: yeast
Setting: single substitutions, most at no-binding floor
Baseline: wild-type JUN-FOS pair
Direction: higher = stronger binding
Starting sequence: JUN, bZIP domain (human); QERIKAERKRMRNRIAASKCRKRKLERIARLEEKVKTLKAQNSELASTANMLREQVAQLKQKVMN; partner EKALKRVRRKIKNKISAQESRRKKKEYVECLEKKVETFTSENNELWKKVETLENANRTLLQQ
| Variant | binding fitness [natural log] |
| --- | --- |
| M51Y | -1.41 |
| K39H | -1.54 |
| K39D | -1.53 |
| K36V | -1.42 |
| R53L | -1.41 |
| S47M | -1.18 |
| Q55Y | -1.32 |
| L52K | -1.38 |
| A46T | -1.43 |
| S47P | -1.54 |
| T48M | -1.33 |
| A49S | -1.46 |
| K36H | -1.54 |
| E54H | -1.36 |
| S43G | -1.34 |
| L45D | -1.53 |

Set 3
Target: Interferon regulatory factor 5, full length, phosphomimetic (IRF5, Homo sapiens, UniProt Q13568-2, residues 1-514, S451D/S453D/S456D/S462D)
Method: protein-binding microarray
Molecule type: double-stranded DNA, one strand shown
Medium: in vitro
Tested at: 940 nM top
Setting: 60-bp whole probe
Added: salmon DNA 0.4 mg/ml
Baseline: random background probes
Direction: higher = stronger binding
Constant ends, left off below: GCCTAGCAC … GTCTTGATTCGCTTGACGCTGCTG
| Sequence | fitted relative affinity [z-score] |
| --- | --- |
| TTAGGTCTGGGACTGGGTTAGTGCTAG | -0.594 |
| GACGGACTGGGGTTTCGGCACGTGCTA | 2.29 |
| GGGCACGTTGTTTAACTTCTGTGCTAG | -0.162 |
| GACGATATCTGACTGGAGACGTGCTAG | -0.377 |
| GACGAATTGGGGTATCGAGACGTGCTA | 1.11 |
| TTAGATCTCAGTTTGGATTAGTGCTAG | 0.115 |
| GACGGTATCCTACAGCTGACGTGCTAG | -0.154 |
| GACGATAGCGGGTTTCGAGACGTGCTA | 2.03 |
| TCAGGACTGGACACTGGGTTAGTGCTA | -0.364 |
| TTAGGTTTCGACTATCGGTTAGTGCTA | 8.46 |
| GACAGTATCCTACTGCTGACGTGCTAG | 0.0977 |
| TTATGTTCCGGTTTCGGTTAGTGCTAG | 8.91 |
| GACGTTTTCGGACTGGGGACGTGCTAG | 0.684 |
| GACGGTATCCTCATCCTGACGTGCTAG | 0.236 |
| TTAGGCATCGGTCTCGGTTAGTGCTAG | 1.81 |
| GACGACCTCAGACTGGAGACGTGCTAG | -0.618 |
| GACAATTTCGGGTATCGAGACGTGCTA | 1.83 |
| TTAGGTATCGGTCTCGGGTAGTGCTAG | 9.03 |
| TTAGGTCTCCTTATACTTTAGTGCTAG | 0.444 |
| GACGGTATCGGGTTTCAGGACGTGCTA | 4.66 |
| GACGGTTGCCTTTTCCTGACGTGCTAG | 0.317 |
| GCCGGTTTCGGTTCCGGGACGTGCTAG | 15.5 |
| TTAGATATCCGTCTCGATTAGTGCTAG | 1.45 |
| GACGGTTTCGGTTTCGGGAAGTGCTAG | 15.1 |
| GACGATCTCAGATTCGAGACGTGCTAG | 0.057 |

Set 4
Target: CCNB2, cyclin fold, Cln2 fusion (human)
Method: yeast growth competition, sequencing
Medium: yeast
Setting: weak parent motif
Baseline: not given
Direction: higher = stronger binding
Starting sequence: EXO1 docking peptide (human); KPECGRVQRAIFQ; partner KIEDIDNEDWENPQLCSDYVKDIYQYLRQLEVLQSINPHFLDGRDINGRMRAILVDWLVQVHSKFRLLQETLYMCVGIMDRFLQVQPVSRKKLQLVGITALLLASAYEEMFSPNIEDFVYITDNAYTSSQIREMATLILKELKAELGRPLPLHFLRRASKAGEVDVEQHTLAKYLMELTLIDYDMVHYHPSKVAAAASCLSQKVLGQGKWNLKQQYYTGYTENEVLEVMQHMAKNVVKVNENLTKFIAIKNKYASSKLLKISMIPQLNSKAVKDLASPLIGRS
| Variant | normalised enrichment score |
| --- | --- |
| KAECGRVQRAIFQ [P2A] | 0.286 |
| KPECGRVARAIFQ [Q8A] | 0.567 |
| APECGRVQRAIFQ [K1A] | -0.321 |
| KPACGRVQRAIFQ [E3A] | 0.192 |
| KPECGRAQRAIFQ [V7A] | 0.271 |
| KPECGAVQRAIFQ [R6A] | 0.222 |

Set 5
Target: Sal-like protein 4, full length isoform B (SALL4, Homo sapiens, UniProt Q9UJQ4-2, residues 1-616)
Method: universal PBM
Molecule type: double-stranded DNA, one strand shown
Medium: in vitro
Tested at: not given
Setting: 8-mer, flanks averaged, mean of replicates
Direction: higher = stronger binding
| Sequence | E-score |
| --- | --- |
| ACGGCAAC | -0.0825 |
| GGGAGAGA | -0.165 |
| GCTTACTA | 0.145 |
| ATAGAGAT | 0.248 |
| GACTATCA | 0.145 |
| GAGTGGAC | -0.161 |
| AGTCATGC | -0.188 |
| GAATGCAA | 0.189 |
| CGAAACAC | 0.00076 |
| ACGTGCTA | 0.169 |
| ACCCACTA | -0.0214 |
| ACAATGGG | 0.014 |
| AGCACGCG | -0.115 |
| AAGAGCAA | -0.00046 |
| CAGACGGA | -0.164 |
| ATAAACAC | 0.231 |
| CCTCCGCC | -0.273 |
| GAGTCAGA | -0.0212 |
| ACGGAAGT | -0.0202 |
| GCACACTA | -0.0587 |
| GGCCGCCA | -0.253 |
| CAAATGAA | 0.277 |

Set 6
Target: ABI1, truncated, D143A, DHFR fusion (Arabidopsis thaliana)
Method: DHFR PCA, deep sequencing
Medium: yeast
Setting: methotrexate growth selection, single substitutions
Added: (+)-ABA 0.032 µM
Baseline: wild-type fitted maximum
Direction: higher = stronger binding
Starting sequence: PYL1, truncated, DHFR fusion (Arabidopsis thaliana); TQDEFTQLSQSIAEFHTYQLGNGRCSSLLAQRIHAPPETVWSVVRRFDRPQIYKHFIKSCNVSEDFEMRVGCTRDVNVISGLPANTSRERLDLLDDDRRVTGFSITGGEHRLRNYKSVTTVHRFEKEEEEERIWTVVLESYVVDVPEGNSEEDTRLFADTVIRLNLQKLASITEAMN; partner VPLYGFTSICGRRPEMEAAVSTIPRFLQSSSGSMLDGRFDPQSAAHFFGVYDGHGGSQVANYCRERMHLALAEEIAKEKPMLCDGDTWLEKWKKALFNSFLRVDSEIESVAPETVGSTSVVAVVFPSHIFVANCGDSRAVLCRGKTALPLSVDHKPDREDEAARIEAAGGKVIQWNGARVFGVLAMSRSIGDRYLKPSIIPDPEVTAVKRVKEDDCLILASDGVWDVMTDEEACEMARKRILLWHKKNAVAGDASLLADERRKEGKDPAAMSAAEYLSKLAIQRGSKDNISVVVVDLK
| Variant | relative binding score [%] |
| --- | --- |
| F124R | -0.247 |
| P36Y | 3.84 |
| Q167N | 0.745 |
| I33Q | 1.8 |
| N85V | 63.5 |
| G148Y | -4.99 |
| T73R | 3.04 |
| G23E | 5.44 |
| P50K | -10.9 |
| A170H | -10.5 |
| E4G | 6.8 |
| H55L | 16.2 |
| G71K | 0.249 |
| C72V | 31.1 |
| T1L | 25.3 |
| D75Y | 23.5 |
| D159C | -2.32 |
| Q2E | 34 |
| V136N | 0.711 |
| S26H | 9.08 |

Further values, each from its own experiment
| Substance | target | test | test system | setting | how to read | quantity | value |
| --- | --- | --- | --- | --- | --- | --- | --- |
| PhoQ, residues 284 288 289 292 302 303 SSTMSV | PhoP, residues 12 14 15 18 19 SQCLL (Escherichia coli, UniProt P23836) | Sort-seq, item: YFP reporter | E. coli | PhoQ-PhoP variant library, added: 10 µM Mg2+ | baseline: high Mg2+ state, higher = stronger signaling | fold induction | 15 |
